# Measured values collected from several papers.
# Lines come from different studies, so protocols differ. ± marks the error that the study gave.
Compound,test,test system,setting,fraction unbound
CN(c1ncco1)c1ncnc2ccc(-c3cccc(N4CCOCC4)c3)cc12,,human plasma,,0.11
C[C@@H](O)[C@H](NC(=O)[C@H](Cc1ccc(O)cc1)NC(=O)[C@H](Cc1ccc(O)cc1)NC(=O)[C@H](CO)NC(=O)[C@H](CCCNC(=N)N)NC(=O)[C@H](Cc1c[nH]cn1)NC(=O)[C@@H](N)Cc1c[nH]c2ccccc12)C(=O)N[C@@H](Cc1c[nH]c2ccccc12)C(=O)N[C@@H](CC(N)=O)C(=O)NCCCC[C@H](NC(=O)[C@H](CC(N)=O)NC(=O)[C@H](Cc1c[nH]c2ccccc12)NC(=O)[C@@H](NC(=O)[C@H](Cc1ccc(O)cc1)NC(=O)[C@H](Cc1ccc(O)cc1)NC(=O)[C@H](CO)NC(=O)[C@H](CCCNC(=N)N)NC(=O)[C@H](Cc1c[nH]cn1)NC(=O)[C@@H](N)Cc1c[nH]c2ccccc12)[C@@H](C)O)C(N)=O,,human serum albumin,,0.07
COCC(=O)N1CCC[C@H](C(=O)NCc2nc(-c3ccc(C#N)cc3)cs2)C1,,mouse plasma,6 h,0.13
C=CC(=O)Nc1cc(Nc2nccc(Nc3cc(Cl)c(F)cc3C(C)(C)O)n2)c(OC)cc1N1CC[C@@H](N(C)C)C1,,human plasma,,0.085
N#Cc1ccc(-c2cc(=O)c3ccc4[nH]c(C(F)(F)F)nc4c3o2)cc1,,plasma,,0.1%
Cc1cccc(C)c1OCC(=O)N[C@@H](Cc1ccccc1)[C@@H](O)C[C@H](Cc1ccccc1)NC(=O)[C@H](C(C)C)N1CCCNC1=O,,"patients with elevated AAG, plasma","oral, weeks 2 and 16",0.0025
Cc1cnc(Nc2ccnc3ccc(-c4ccc(S(=O)(=O)N5CCOCC5)cc4)cc23)s1,,human plasma,,0.004
Cc1onc(-c2ccccc2Cl)c1C(=O)N[C@@H]1C(=O)N2[C@@H]1SC(C)(C)[C@@H]2C(=O)O,ultrafiltration,patient plasma,range over 9 samples,0.08 to 0.24
CCCC[C@@H]1NC(=O)[C@H](Cc2ccc(O)cc2)NC(=O)[C@@H]2CCCN2C(=O)[C@H](CC(=O)O)NC(=O)[C@H](C)NC(=O)[C@H](Cc2ccccc2)NC(=O)[C@@H]2CSCCC(=O)N3CN(CN(C3)C(=O)CCSC[C@@H](C(=O)N[C@@H](CNC(=O)CCOCCOCCOCCOCCOCCOCCOCCOCCOCCOCCOCCOCCn3cc(CCC(=O)NCCC(=O)N(C)CC(=O)N(C)CC(=O)N(C)CC(=O)N(C)CC(=O)N(C)CC(=O)N(C)CC(=O)N(C)CC(=O)N(C)CC(=O)N(C)CC(=O)N(C)CC(=O)N[C@H]4CSCCC(=O)N5CN6CN(C5)C(=O)CCSC[C@H](NC(=O)[C@@H](CC(=O)O)NC(=O)[C@H](Cc5cccc7ccccc57)NC(=O)[C@@H]5CCCN5C4=O)C(=O)N[C@@H](CCSC)C(=O)N[C@@H](CCCCNC(=N)N)C(=O)N[C@@H](CC(=O)O)C(=O)N[C@@H](Cc4c[nH]c5ccccc45)C(=O)N[C@@H](CO)C(=O)N[C@@H]([C@@H](C)O)C(=O)N4CCC[C@H]4C(=O)N4C[C@H](O)C[C@H]4C(=O)N[C@@H](Cc4c[nH]c5ccccc45)C(=O)N[C@H](C(N)=O)CSCCC6=O)nn3)C(N)=O)NC1=O)C(=O)CCSC[C@H](NC(C)=O)C(=O)N[C@@H](CC(C)(C)C)C(=O)N1CCC[C@H]1C(=O)N[C@@H](CCC(=O)O)C(=O)N[C@H](C)C(=O)N1CCC[C@H]1C(=O)N[C@@H](Cc1ccc(O)cc1)C(=O)N2,ultracentrifugation,rat plasma,,0.34
CCn1ncc2c1-c1cnc(N)c(c1)O[C@H](C)c1cc(F)ccc1-c1nn(C)nc1C2,equilibrium dialysis,cell medium with 10% FBS,,0.82
COc1cc2c3c(n(CCCN4CCOCC4)c(=O)c2cc1OC)-c1cc2c(cc1C3=O)OCO2,equilibrium dialysis,dog plasma,"10760 ng/mL, 24 h, 37 °C",0.023
COc1ccc2[nH]c([S+]([O-])Cc3ncc(C)c(OC)c3C)nc2c1 (stereo not shown),rapid equilibrium dialysis,10% human plasma,"2 µM, 24 h, pH 7.4",0.029
Cc1ccccc1CN1C(=O)C2=C(CCN(Cc3ccccc3)C2)N2CCN=C12,equilibrium dialysis,plasma,0.386 mg/L,0.0303
c1coc(Nc2ncnc3ccc(-c4cncc(N5CCOCC5)n4)cc23)n1,,human plasma,,0.025
CCn1c(C(=O)N(C2CC2)C2CC2)cc2c3c(ncn3C)c(Nc3cc(C)n(C)n3)nc21,,plasma,,0.02
CCOC(F)(F)c1nnc2cnc(-c3cnc(OCC(F)(F)F)c(F)c3)cn12,,mouse plasma,,0.081
N#C[C@@]12C[C@@H]1[C@@H](n1cnc3c(N[C@@H](C4CCC4)C4CC4)nc(I)nc31)[C@H](O)[C@@H]2O,plasma protein binding,rat plasma,,0.0163
O=[N+]([O-])c1ccc(Nc2ncnc3ccc(-c4cccc(N5CCOCC5)c4)cc23)cc1C(F)(F)F,,human plasma,,< 0.0026
Cc1cc(Nc2ccnc3ccc(-c4ccc(S(=O)(=O)N5CCOCC5)cc4)cc23)sn1,,human plasma,,0.007
O=C(Cc1ccc(F)c(C(F)(F)F)c1)N1CCN(c2ccc3nncn3n2)CC1,ultrafiltration,human plasma,"1 µM, 0.5 h",0.16
O=C1C2N=CN3C(NCc4c(F)ccc5c4CCO5)=NC=C(c4cnc(C(F)(F)F)cc4CN1CC(F)F)C23 (stereo not shown),,human plasma,,< 0.01
O=C(NO)c1ccc(CN(c2cnccn2)c2cnccn2)cc1,,mouse plasma,,0.58
O=C(CS(=O)(=O)O)Nc1nc2ccccc2s1,equilibrium dialysis,mouse plasma,4.5 h,> 0.2
CC(C)NCC(O)COc1cccc2ccccc12 (stereo not shown),rapid equilibrium dialysis,human plasma,"10 µM, 4 h, 37 °C",0.186
N#C[C@@]1(c2ccc3c(N)ncnn23)O[C@H](CO)[C@@H](O)[C@H]1O,,monkey plasma,10 µM,0.811
Clc1ccc(COc2cncc(-c3cnn(C4CCNCC4)c3)c2)c(Cl)c1,,mouse plasma,,0.0184
CC(F)(F)CN1Cc2cc(C(F)(F)F)ncc2C2=CN=C(NCc3c(F)ccc4c3CCO4)N3C=NC(C1=O)C23 (stereo not shown),,rat plasma,,< 0.01
C=CC(=O)Nc1cc(Nc2ncc(C(=O)OC(C)C)c(-c3cn(C)c4ccccc34)n2)c(OC)cc1N(C)CCN(C)C,,rat brain slices,,0.0008 ± 0.0001
Cc1noc2c1-c1ccccc1C(c1ccc(Cl)cc1)=N[C@H]2CC(N)=O,equilibrium dialysis,mouse brain homogenate,"1 µM, 6 h, pH 7.4",0.0437 ± 0.0126
C/C(O)=C(\C#N)C(=O)Nc1ccc(C(F)(F)F)cc1,equilibrium dialysis,RPMI medium with 10% FBS,24 h,0.26 ± 0.016
CN1CC(Oc2cnc(C#N)cc2-c2ccn3nc(NC(=O)C4CC4)cc3c2)C1,,mouse plasma diluted 25%,"1 µM, 6 h, pH 7.4",0.46
O=S(=O)(c1ccc(-c2ccc3nccc(Nc4ccc(OCc5cccc(F)c5)cc4)c3c2)cc1)N1CCOCC1,,human plasma,,< 0.001
c1cc(-c2ccc3ncnc(Nc4ncco4)c3c2)nc(N2CCOCC2)n1,,human plasma,,0.016
CCNC(=O)OC1CCN(c2nncc3cc(OC)c(OC)cc23)CC1,equilibrium dialysis,human plasma,,0.148
O=C1CN(c2nc(=O)c3cc(C(F)(F)F)cc([N+](=O)[O-])c3s2)CCN1C1CCCC1,equilibrium dialysis,CD-1 mouse plasma,"1 µM, 18 h, pH 7.4",0.03
COCCc1ccc(OCC(O)CNC(C)C)cc1 (stereo not shown),rapid equilibrium dialysis,rat plasma,"2 µM, 6 h, pH 7.4",0.815
COc1ccc(Nc2ccnc3ccc(-c4ccc(S(=O)(=O)N5CCOCC5)cc4)cc23)cc1Cl,,human plasma,,0.003

# Some of these lines once more:
Compound,test,test system,setting,fraction unbound
CN(c1ncco1)c1ncnc2ccc(-c3cccc(N4CCOCC4)c3)cc12,,human plasma,,0.11
C[C@@H](O)[C@H](NC(=O)[C@H](Cc1ccc(O)cc1)NC(=O)[C@H](Cc1ccc(O)cc1)NC(=O)[C@H](CO)NC(=O)[C@H](CCCNC(=N)N)NC(=O)[C@H](Cc1c[nH]cn1)NC(=O)[C@@H](N)Cc1c[nH]c2ccccc12)C(=O)N[C@@H](Cc1c[nH]c2ccccc12)C(=O)N[C@@H](CC(N)=O)C(=O)NCCCC[C@H](NC(=O)[C@H](CC(N)=O)NC(=O)[C@H](Cc1c[nH]c2ccccc12)NC(=O)[C@@H](NC(=O)[C@H](Cc1ccc(O)cc1)NC(=O)[C@H](Cc1ccc(O)cc1)NC(=O)[C@H](CO)NC(=O)[C@H](CCCNC(=N)N)NC(=O)[C@H](Cc1c[nH]cn1)NC(=O)[C@@H](N)Cc1c[nH]c2ccccc12)[C@@H](C)O)C(N)=O,,human serum albumin,,0.07
COCC(=O)N1CCC[C@H](C(=O)NCc2nc(-c3ccc(C#N)cc3)cs2)C1,,mouse plasma,6 h,0.13
C=CC(=O)Nc1cc(Nc2nccc(Nc3cc(Cl)c(F)cc3C(C)(C)O)n2)c(OC)cc1N1CC[C@@H](N(C)C)C1,,human plasma,,0.085
N#Cc1ccc(-c2cc(=O)c3ccc4[nH]c(C(F)(F)F)nc4c3o2)cc1,,plasma,,0.1%
